Results pooled from the literature.
A part holds a random share of what one study measured. Several values in a cell are separate wells, animals, samples, runs or records.
Sequence of UniProt Q9UPZ9 (whole entry, looked up): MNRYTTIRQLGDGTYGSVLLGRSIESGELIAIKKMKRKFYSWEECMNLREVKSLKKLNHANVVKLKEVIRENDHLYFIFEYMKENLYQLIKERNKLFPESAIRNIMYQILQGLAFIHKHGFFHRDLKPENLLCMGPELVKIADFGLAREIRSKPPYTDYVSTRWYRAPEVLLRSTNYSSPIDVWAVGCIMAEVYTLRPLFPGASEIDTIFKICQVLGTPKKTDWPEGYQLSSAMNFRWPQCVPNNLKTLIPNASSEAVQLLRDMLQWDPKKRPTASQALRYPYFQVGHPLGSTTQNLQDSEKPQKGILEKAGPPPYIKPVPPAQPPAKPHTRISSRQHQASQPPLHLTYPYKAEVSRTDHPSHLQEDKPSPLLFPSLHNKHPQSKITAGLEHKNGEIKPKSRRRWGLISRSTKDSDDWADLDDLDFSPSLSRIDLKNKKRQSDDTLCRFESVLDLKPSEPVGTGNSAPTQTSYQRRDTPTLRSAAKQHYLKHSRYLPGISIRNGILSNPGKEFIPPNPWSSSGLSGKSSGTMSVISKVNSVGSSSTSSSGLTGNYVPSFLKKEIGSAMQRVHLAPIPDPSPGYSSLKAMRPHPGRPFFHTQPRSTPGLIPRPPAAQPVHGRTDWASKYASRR
Sequence of UniProt Q13882 (whole entry, looked up): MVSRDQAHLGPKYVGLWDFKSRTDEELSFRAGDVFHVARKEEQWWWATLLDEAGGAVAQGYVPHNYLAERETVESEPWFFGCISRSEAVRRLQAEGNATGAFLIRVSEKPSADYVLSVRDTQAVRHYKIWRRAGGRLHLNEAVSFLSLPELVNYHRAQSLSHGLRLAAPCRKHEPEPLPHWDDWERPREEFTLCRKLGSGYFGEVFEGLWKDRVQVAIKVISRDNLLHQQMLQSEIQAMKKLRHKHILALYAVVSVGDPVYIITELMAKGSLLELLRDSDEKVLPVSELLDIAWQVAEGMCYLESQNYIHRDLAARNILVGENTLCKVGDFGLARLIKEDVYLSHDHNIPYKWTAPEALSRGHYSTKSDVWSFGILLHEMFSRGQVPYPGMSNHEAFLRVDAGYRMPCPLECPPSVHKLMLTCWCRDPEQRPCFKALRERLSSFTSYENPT
Sequence of UniProt P68400 (whole entry, looked up): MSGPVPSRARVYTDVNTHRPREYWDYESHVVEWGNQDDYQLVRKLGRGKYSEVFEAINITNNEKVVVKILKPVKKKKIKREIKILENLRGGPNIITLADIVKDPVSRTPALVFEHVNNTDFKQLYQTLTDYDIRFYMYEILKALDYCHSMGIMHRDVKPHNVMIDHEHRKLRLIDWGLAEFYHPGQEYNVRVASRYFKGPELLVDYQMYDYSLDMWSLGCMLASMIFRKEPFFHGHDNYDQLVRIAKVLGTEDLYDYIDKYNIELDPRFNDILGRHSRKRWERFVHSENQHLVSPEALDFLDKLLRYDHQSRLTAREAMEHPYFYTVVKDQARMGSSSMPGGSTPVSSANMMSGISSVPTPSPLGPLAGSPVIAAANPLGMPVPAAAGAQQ
Sequence of UniProt Q16620 (whole entry, looked up): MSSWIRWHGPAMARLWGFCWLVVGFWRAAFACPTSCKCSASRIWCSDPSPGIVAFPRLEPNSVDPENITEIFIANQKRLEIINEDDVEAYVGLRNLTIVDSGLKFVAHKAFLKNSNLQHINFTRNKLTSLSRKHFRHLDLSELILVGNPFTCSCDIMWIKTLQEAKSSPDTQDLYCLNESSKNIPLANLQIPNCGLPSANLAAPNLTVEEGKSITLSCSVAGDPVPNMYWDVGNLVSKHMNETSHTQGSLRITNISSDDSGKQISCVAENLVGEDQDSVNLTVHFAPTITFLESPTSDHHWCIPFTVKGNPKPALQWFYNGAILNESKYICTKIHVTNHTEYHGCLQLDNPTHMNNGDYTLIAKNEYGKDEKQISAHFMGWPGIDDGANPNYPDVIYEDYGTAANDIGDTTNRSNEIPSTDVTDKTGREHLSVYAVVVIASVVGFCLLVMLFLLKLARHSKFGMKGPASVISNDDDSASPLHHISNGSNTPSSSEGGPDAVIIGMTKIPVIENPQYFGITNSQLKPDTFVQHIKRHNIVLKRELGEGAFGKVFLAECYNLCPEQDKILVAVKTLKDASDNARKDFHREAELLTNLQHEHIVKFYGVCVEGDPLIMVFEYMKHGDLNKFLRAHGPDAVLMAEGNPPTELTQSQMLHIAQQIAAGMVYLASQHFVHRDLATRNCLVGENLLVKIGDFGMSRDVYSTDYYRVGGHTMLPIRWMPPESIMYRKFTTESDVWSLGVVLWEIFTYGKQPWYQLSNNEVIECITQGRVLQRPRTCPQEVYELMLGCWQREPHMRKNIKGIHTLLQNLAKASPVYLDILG

Sample 1
Structure (SMILES): CC(C)n1cnc(-c2ccc(F)cc2)c1-c1ncc(C(=O)Nc2ccc(N3CCN(C)CC3)cc2)[nH]1
Technique: phase 2a trial
Dose: 30 mg once daily
idiopathic pulmonary fibrosis patients; oral, musculoskeletal disorders, grade 5 — “patients with TEAE”: 0%.
patients with idiopathic pulmonary fibrosis; free thyroxine decreased, grade 2 — “patients with TEAE”: 0%.
The “patients with TEAE” was 0% (idiopathic pulmonary fibrosis patients; oral, disc protrusion, grade 4).

Sample 2
Target: DNA polymerase theta, ATPase domain (POLQ, Homo sapiens, UniProt O75417)
Sequence of UniProt O75417 (whole entry, unmodified, looked up): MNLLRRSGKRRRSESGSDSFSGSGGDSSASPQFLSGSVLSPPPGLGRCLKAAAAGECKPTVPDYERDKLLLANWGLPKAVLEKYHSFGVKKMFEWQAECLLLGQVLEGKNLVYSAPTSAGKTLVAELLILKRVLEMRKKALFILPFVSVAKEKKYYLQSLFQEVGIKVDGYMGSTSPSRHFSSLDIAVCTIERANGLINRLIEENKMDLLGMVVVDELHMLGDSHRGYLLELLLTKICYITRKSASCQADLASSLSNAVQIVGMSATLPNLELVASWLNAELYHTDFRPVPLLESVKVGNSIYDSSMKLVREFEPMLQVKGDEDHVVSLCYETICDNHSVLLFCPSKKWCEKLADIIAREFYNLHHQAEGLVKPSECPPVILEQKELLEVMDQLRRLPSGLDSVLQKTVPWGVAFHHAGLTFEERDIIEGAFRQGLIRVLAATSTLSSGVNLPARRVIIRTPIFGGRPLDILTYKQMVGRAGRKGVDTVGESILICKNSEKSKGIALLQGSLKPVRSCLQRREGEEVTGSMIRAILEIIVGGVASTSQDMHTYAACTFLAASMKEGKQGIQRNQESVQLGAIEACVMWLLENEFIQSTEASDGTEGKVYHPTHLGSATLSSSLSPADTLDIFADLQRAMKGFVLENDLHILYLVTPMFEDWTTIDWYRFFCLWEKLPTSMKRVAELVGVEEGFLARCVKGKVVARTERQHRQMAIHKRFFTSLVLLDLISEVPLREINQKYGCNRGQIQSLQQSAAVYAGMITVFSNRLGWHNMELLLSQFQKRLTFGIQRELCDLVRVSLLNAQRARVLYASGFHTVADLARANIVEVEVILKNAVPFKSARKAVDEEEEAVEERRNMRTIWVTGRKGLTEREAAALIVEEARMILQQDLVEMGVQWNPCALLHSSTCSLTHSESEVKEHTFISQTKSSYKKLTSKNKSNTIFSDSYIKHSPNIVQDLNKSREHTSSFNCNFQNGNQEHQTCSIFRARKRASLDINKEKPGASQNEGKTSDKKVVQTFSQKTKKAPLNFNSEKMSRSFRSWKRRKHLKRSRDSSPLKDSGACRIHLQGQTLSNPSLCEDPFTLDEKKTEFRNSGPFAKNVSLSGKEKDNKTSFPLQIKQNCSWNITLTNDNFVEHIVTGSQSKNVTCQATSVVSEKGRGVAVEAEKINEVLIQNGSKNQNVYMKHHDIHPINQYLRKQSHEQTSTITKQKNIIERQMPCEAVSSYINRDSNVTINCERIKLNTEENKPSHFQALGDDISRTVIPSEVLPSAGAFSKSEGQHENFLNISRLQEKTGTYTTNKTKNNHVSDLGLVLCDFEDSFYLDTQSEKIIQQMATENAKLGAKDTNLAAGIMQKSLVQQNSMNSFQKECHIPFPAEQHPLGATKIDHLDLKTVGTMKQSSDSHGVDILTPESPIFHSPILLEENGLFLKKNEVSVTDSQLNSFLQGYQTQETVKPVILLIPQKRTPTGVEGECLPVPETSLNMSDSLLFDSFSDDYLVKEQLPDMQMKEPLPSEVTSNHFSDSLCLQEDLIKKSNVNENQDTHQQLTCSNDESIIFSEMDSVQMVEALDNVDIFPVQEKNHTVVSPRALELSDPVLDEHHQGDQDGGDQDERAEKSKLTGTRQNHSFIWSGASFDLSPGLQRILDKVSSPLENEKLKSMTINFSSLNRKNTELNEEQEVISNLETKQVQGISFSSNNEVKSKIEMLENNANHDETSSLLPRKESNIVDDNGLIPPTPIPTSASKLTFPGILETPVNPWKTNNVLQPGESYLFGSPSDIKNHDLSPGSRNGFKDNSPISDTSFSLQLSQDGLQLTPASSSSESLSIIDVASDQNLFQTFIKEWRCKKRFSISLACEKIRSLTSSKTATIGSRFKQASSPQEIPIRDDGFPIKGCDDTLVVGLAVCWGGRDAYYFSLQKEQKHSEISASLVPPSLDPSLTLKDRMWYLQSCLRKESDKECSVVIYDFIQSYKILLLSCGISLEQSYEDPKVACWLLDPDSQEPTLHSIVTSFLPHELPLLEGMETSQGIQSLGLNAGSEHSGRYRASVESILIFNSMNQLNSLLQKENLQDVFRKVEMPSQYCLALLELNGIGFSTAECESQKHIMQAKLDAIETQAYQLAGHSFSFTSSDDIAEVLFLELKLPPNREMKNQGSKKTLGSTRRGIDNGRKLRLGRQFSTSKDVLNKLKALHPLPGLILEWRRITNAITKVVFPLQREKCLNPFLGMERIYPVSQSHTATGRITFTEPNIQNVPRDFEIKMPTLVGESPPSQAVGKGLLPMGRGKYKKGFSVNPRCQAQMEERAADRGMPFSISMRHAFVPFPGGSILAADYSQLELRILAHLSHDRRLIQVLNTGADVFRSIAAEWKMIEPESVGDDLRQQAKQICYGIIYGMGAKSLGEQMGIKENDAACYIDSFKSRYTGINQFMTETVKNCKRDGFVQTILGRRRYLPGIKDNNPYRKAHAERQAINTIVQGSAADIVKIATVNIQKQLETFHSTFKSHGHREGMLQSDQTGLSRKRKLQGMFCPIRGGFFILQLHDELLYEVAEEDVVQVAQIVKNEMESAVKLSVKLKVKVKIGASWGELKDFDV
Read-out: enzyme activity
Mode: inhibitor
Tested at: 77 µM
Baseline: untreated
For `Cn1ccc2cc(NC(=O)Nc3cccnc3)ccc21`, the remaining activity was 99.7%.
For `C[C@H](CCC(=O)O)[C@H]1CC[C@H]2[C@@H]3CC[C@@H]4C[C@H](O)CC[C@]4(C)[C@H]3CC[C@]12C`, the remaining activity was 86.7% and 94.3%.
`Fc1ccc(CN(C2=NCCN2)c2c(Cl)cccc2Cl)cc1` has a remaining activity of 103%.

Sample 3
Structure (SMILES): O=C(N[C@H]1CCCCC/C=C\C2C[C@@]2(C(=O)O)NC(=O)[C@@H]2C[C@@H](Oc3ccncc3)CN2C1=O)OC1CCCC1 (stereo partly drawn)
Technique: competition with immobilised ligand
Tested at: 1 µM
The remaining binding was 96% (Mitogen-activated protein kinase 13 (MAPK13, Homo sapiens, UniProt O15264); binding).
It gave 100% for remaining binding (BDNF/NT-3 growth factors receptor (NTRK2, Homo sapiens, UniProt Q16620); cell-free assay).
Cyclin-dependent kinase 5 (CDK5, Homo sapiens, UniProt Q00535); binding — remaining binding: 77%.
The remaining binding was 85% (Serine/threonine-protein kinase ICK (CILK1, Homo sapiens, UniProt Q9UPZ9); binding).
For Tyrosine-protein kinase Lyn (LYN, Homo sapiens, UniProt P07948); binding: remaining binding read 87%.
The remaining binding was 100% (Tyrosine-protein kinase ABL1, non-phosphorylated (ABL1, Homo sapiens, UniProt P00519, T315I); binding).
For Fibroblast growth factor receptor 4 (FGFR4, Homo sapiens, UniProt P22455); cell-free assay: remaining binding read 100%.
The remaining binding was 84% (Dual specificity tyrosine-phosphorylation-regulated kinase 1A (DYRK1A, Homo sapiens, UniProt Q13627); cell-free assay).
Protein-tyrosine kinase 6 (PTK6, Homo sapiens, UniProt Q13882); binding — remaining binding: 100%.
It gave 100% for remaining binding (Ribosomal protein S6 kinase alpha-3, N-terminal kinase domain (RPS6KA3, Homo sapiens, UniProt P51812); binding).
The remaining binding was 89% (Aurora kinase B (AURKB, Homo sapiens, UniProt Q96GD4); binding).
It gave 91% for remaining binding (Dual specificity mitogen-activated protein kinase kinase 7 (MAP2K7, Homo sapiens, UniProt O14733); binding).
It gave 88% for remaining binding (cGMP-dependent protein kinase 2 (PRKG2, Homo sapiens, UniProt Q13237); binding).
It gave 88% for remaining binding (Interleukin-1 receptor-associated kinase 1 (IRAK1, Homo sapiens, UniProt P51617); binding).

Sample 4
Cell line: mouse MPNST tumor cells
Technique: high-content immunofluorescence imaging
Refers to: nuclear SOX9
Tested at: 10 µM
Time: 12 h
Setting: mean of 2 replicates
Baseline: DMSO control
Reading: higher = more nuclear SOX9
For `CC(C)(N)C(=O)N[C@H](COCc1ccccc1)C(=O)N1CCC2(CC1)CN(S(C)(=O)=O)c1ccccc12`, “nuclear SOX9 intensity” read 106 % of DMSO.
For `O=C(OC(C(F)(F)F)C(F)(F)F)N1CCC(C(O)(c2ccc3c(c2)OCO3)c2ccc3c(c2)OCO3)CC1`, “nuclear SOX9 intensity” read 122 % of DMSO.
For `COc1ccc(S(=O)(=O)Nc2nc(-c3cccc([N+](=O)[O-])c3)cs2)cc1OC`, “nuclear SOX9 intensity” read 102 % of DMSO.
For `CC(C)Oc1cccc(CC(=O)N2CCC[C@](CC[N+]34CCC(c5ccccc5)(CC3)CC4)(c3ccc(Cl)c(Cl)c3)C2)c1`, “nuclear SOX9 intensity” read 108 % of DMSO.

Sample 5
SMILES: COc1ccc2[nH]c3c4[nH]c5ccc(OC)cc5c4c4c(c3c2c1)C(=O)NC4=O
Read-out: binding
Tested at: 1 µM
The remaining binding was 100% (Cyclin-dependent kinase 3 (CDK3, Homo sapiens, UniProt Q00526); competition with immobilised ligand).
For MAP/microtubule affinity-regulating kinase 3 (MARK3, Homo sapiens, UniProt P27448): remaining binding read 83%.
For Casein kinase II subunit alpha (CSNK2A1, Homo sapiens, UniProt P68400): remaining binding read 61%.
Ephrin type-B receptor 4 (EPHB4, Homo sapiens, UniProt P54760); competition with immobilised ligand — remaining binding: 84%.

Single results of other studies
Cell line: HaCaT
Tested at: 100 µM
Time: 60 h
`O=C(c1cc(Cc2n[nH]c(=O)c3ccccc23)ccc1F)N1CCN(C(=O)C2CC2)CC1` gave a viability of 96.2%.
`O=C(OC[C@H]1O[C@@H](OC(=O)c2cc(O)c(O)c(OC(=O)c3cc(O)c(O)c(O)c3)c2)[C@H](OC(=O)c2cc(O)c(O)c(OC(=O)c3cc(O)c(O)c(O)c3)c2)[C@@H](OC(=O)c2cc(O)c(O)c(OC(=O)c3cc(O)c(O)c(O)c3)c2)[C@@H]1OC(=O)c1cc(O)c(O)c(OC(=O)c2cc(O)c(O)c(O)c2)c1)c1cc(O)c(O)c(OC(=O)c2cc(O)c(O)c(O)c2)c1` gave a viability of 55.3%.

Excerpt of the above (sample 4):
For `O=C(OC(C(F)(F)F)C(F)(F)F)N1CCC(C(O)(c2ccc3c(c2)OCO3)c2ccc3c(c2)OCO3)CC1`, “nuclear SOX9 intensity” read 122 % of DMSO.
For `COc1ccc(S(=O)(=O)Nc2nc(-c3cccc([N+](=O)[O-])c3)cs2)cc1OC`, “nuclear SOX9 intensity” read 102 % of DMSO.
For `CC(C)Oc1cccc(CC(=O)N2CCC[C@](CC[N+]34CCC(c5ccccc5)(CC3)CC4)(c3ccc(Cl)c(Cl)c3)C2)c1`, “nuclear SOX9 intensity” read 108 % of DMSO.
